Published values pooled from the literature.
Each numbered part is a random draw from the data of one study; scales do not carry over between parts.
Chain of UniProt P30530 (whole entry, looked up): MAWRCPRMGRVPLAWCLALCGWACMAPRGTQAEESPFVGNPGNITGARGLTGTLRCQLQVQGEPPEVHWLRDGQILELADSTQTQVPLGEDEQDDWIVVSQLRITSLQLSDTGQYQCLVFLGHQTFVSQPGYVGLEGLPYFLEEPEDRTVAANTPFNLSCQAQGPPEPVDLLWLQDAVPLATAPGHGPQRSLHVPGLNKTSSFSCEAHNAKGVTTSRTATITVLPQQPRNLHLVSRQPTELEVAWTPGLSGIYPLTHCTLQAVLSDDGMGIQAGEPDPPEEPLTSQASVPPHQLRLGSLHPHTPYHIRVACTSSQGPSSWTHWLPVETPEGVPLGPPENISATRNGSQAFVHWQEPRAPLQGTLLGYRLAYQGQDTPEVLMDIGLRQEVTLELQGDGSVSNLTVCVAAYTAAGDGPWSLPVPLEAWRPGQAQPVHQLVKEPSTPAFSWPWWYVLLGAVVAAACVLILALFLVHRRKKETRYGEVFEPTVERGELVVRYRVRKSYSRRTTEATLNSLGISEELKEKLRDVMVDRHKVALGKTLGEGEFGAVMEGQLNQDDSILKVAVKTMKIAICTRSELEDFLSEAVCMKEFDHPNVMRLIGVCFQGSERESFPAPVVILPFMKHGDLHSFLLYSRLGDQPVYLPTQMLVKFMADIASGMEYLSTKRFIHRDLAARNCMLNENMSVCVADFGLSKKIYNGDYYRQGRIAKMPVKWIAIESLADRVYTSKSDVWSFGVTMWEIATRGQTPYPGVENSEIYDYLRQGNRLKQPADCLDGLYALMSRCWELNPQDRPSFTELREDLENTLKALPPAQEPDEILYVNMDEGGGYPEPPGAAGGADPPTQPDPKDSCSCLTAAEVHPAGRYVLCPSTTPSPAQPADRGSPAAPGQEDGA

Set 1
Target: Eukaryotic initiation factor 4A-I (EIF4A1, Homo sapiens, UniProt P60842, residues 1-406, full length assumed)
Chain of UniProt P60842 (whole entry, looked up): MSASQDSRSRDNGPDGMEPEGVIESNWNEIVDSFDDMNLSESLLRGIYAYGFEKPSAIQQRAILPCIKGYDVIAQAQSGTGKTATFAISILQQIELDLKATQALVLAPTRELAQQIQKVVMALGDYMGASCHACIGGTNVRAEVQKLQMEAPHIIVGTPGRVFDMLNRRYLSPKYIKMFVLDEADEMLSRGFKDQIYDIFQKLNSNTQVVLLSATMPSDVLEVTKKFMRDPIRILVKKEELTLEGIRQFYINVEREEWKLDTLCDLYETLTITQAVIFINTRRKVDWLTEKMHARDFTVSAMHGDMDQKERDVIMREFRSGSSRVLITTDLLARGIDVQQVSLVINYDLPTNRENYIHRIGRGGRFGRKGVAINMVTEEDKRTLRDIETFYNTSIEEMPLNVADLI
Method: RNA Bind-n-Seq
Molecule type: RNA
Medium: in vitro
Tested at: 90 pmol
Setting: 4-mer, random 30-nt RNA, single round
Added: 3 µM iPr-DMDA-PatA, 2 mM ADP, 2 mM phosphate
Reference: input library
Direction: higher = stronger binding
Oligonucleotide	4-mer enrichment
UUAA	1.36 fold
CCAC	0.997 fold
CCCG	0.876 fold
AGUG	0.96 fold
UAGG	0.884 fold
UUUG	0.985 fold
UUUU	1.16 fold
AAGA	1.57 fold

Set 2
Target: RING finger protein unkempt homolog, zinc fingers 1-6, GST-SBP tag (UNK, Homo sapiens, UniProt Q9C0B0, residues 30-357)
Method: RNA Bind-n-Seq
Molecule type: RNA
Medium: in vitro
Tested at: not given
Setting: RNA with constant flanks, ends assumed
Reference: input RNA pool
Direction: higher = stronger binding
Constant ends, left off below: GGGAGUUCUACAGUCCGACGAUC … CAACAGAGGAUUGAGCAUCA
Construct (chain): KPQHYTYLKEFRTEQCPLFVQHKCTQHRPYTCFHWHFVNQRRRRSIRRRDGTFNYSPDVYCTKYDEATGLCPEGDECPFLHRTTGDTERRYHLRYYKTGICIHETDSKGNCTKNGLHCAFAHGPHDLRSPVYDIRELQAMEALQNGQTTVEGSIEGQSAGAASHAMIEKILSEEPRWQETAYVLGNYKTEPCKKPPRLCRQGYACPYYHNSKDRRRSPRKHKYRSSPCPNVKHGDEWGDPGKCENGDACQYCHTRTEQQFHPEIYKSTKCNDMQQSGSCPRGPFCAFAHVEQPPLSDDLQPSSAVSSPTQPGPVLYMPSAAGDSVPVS
Oligonucleotide	bound/input enrichment [ratio]
GACCUAGCAAAUAAAAGAGCAGUAGAUUUCCAGGAAGCACAGUCCUAUGCAGAUGACAACCGUUUAUUAUUCAUGGAGACAUCCGCUAAAACAUCAAUGAAUGUAAAUGAAAUAUUCAUG	0.594
UCGCAAAGAUUUAAGUAUCUUAUAAGAACUGUUUGCCAGUGCAAUUAUGAGAAGCUGUUUCCGGUUAUGUGAAAGAGAUGUUUCCUCAUCUCUAAGGCUUACCAGAAGCUCUGAUUUGAA	0.114
AUUCAGGCACAACUGACUGGUUCACAGCACUCCUUACAUAGUUAUCUAUCAAAUUCAAGUGCCGUUAAUUUUCAGGAAACAACCAGGCAGUCAUCUUUAUCCUGUAGCCCAAUUGGAGAU	17.2
CCUCUUGCCAGGAGUCCAUGUUUGUUCUACCCGAACUUUGGACUGUUAACUAGAGAAGUGACCGACUGAUGAACCUUCUAGUGUUGUCUGCUCCAUACGGGAAAUGAGCUUCAAGGCCAA	0.0781
UUGAAGAAAUCAGCAUUUCUAACUGAAGUGAGCCAAAAGGAAAAUUAUGCUGGGGCAAAGUUCCGUGAUCCACCUUCUCCUAGUGUUCUUCCAAAGCCUCCUAGUCACUGGAUGGGAAGC	0.176
UCGGAGUUUGAUCCAUUUUUUAGUCUCUUUGCAUUCACCAACAAAAUUACUUCUGUGCACCGCCGAAUCAUUUGGUCUUGUGACUGGAGUCCUGAUAACAAGUACUUCUUCACUGGAAGU	1.11
ACGAUCGGGGCCUACAUCAACACAACGCACUCACGGCUCACACACAUCAGUCCUCGGCACUACCGUGAGUUUAUAGAGUUCCUCAGCAAAGCCCGAGAGACCUUCUUAAUGGCGCAUGAU	0.218
UGGAACUGUUACUGCCUUGUCCUAGAGUUGUCCUGAUCAGGCUUGGGGCCUAGUUACAGAUCCGUCUUAAAGAAUUGCAUUAACUUAAAAAAAAUCAAACCUUGGCAAGAGCUAAAAUAA	0.45

Set 3
Target: Ras GTPase-activating protein-binding protein 1, RRM domain (G3BP1, Homo sapiens, UniProt Q13283)
Chain of UniProt Q13283 (whole entry, looked up): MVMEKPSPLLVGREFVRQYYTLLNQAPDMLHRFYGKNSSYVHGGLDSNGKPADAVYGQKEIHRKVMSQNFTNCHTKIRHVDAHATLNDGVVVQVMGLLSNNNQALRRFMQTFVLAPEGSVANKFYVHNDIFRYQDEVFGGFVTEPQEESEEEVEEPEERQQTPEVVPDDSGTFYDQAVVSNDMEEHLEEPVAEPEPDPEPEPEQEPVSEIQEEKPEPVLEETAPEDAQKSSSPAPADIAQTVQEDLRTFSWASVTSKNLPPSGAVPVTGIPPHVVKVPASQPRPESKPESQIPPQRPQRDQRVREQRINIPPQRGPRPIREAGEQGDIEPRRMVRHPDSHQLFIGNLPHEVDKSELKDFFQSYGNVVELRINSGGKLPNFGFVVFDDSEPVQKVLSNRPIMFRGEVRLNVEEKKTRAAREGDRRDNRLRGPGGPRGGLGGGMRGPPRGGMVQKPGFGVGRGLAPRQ
Method: RNA Bind-n-Seq
Molecule type: RNA
Medium: in vitro
Tested at: 1 µM
Setting: whole 134-nt RNA, ends assumed
Added: 150 mM KCl
Reference: input library
Direction: higher = stronger binding
Constant ends, left off below: GGGAGUUCUACAGUCCGACGAUC … UGGAAUUCUCGGGUGUCAAGG
Oligonucleotide	log2 enrichment
GUAGGAAGUAAAAACAAAUGGAAAUGCUUCGGAUAGUGGCAGGGGUGGGGGUUGCUAAGGAAAGGGUGGGAUGGGAGUGGGUAAAGAGUU	0.746
UAACUUUAGAGGAGGAUCUGAUGGAUAUGGCAGUGGACGUGGCUUUGGGGAUGGCUAUAAUGGGUAUGGAGGAGGACCUGGAGGUGGCAA	-0.585
GUCCUGUGCUACACAUCGUAUGUACCGAAUCGGGAAAAAAAGGGUUUUUUUGGGUGGGAAAGUAUUAUGUUACGCCGUUCGGAUCUGCAC	0.39
CCUGUGCUACACAUCGUAUGUACCGAAUCGGAAAAAAAGGAAAAAAAGGAAAAAAAGGGGAAAGUAUUAUGUUACGCCGUUCGGAUCUGC	0.094
GUCCUGUGCUACACAUCGUAUGUACCGAAUCGGGCCCCCGGGCCCCCGGGGCCCCCGGGAAAGUAUUAUGUUACGCCGUUCGGAUCUGCA	-0.715
CAAGUCCUGUGCUACACAUCGUAUGUACCGAAUCGGUUUUUGGAAAAAGGAAAGGAAAGUAUUAUGUUACGCCGUUCGGAUCUGCACUUC	-0.172
CAAGUCCUGUGCUACACAUCGUAUGUACCGAAUCGGUUUUUUUGGAAAGGUUUGGAAAGUAUUAUGUUACGCCGUUCGGAUCUGCACUUC	-0.44
CAAGUCCUGUGCUACACAUCGUAUGUACCGAAUCGGGAAAAGGAAAAGGGAAAAGGAAAGUAUUAUGUUACGCCGUUCGGAUCUGCACUU	-0.206

Mixed results
SMILES	target	effect on	mode	tested at	reference	quantity	result
CN(C)S(=O)(=O)c1ccc2c(c1)/C(=C/c1cc3c([nH]1)CCCC3)C(=O)N2	Tyrosine-protein kinase receptor UFO (AXL, Homo sapiens, UniProt P30530)	enzyme activity	inhibitor	0.5 µM	control	remaining activity	39.7%

A few entries again (set 3):
Oligonucleotide	log2 enrichment
GUCCUGUGCUACACAUCGUAUGUACCGAAUCGGGCCCCCGGGCCCCCGGGGCCCCCGGGAAAGUAUUAUGUUACGCCGUUCGGAUCUGCA	-0.715
CCUGUGCUACACAUCGUAUGUACCGAAUCGGAAAAAAAGGAAAAAAAGGAAAAAAAGGGGAAAGUAUUAUGUUACGCCGUUCGGAUCUGC	0.094
